Measurements of several laboratories.
A part holds a random share of what one study measured.

Series 1 — technique: universal PBM; molecule type: double-stranded DNA, one strand shown; medium: in vitro; concentration: 600 nM; direction: higher = stronger binding
Target: Sal-like protein 4, full length isoform A (SALL4, Homo sapiens, UniProt Q9UJQ4, residues 1-1053)
Chain of UniProt Q9UJQ4 (whole entry, looked up): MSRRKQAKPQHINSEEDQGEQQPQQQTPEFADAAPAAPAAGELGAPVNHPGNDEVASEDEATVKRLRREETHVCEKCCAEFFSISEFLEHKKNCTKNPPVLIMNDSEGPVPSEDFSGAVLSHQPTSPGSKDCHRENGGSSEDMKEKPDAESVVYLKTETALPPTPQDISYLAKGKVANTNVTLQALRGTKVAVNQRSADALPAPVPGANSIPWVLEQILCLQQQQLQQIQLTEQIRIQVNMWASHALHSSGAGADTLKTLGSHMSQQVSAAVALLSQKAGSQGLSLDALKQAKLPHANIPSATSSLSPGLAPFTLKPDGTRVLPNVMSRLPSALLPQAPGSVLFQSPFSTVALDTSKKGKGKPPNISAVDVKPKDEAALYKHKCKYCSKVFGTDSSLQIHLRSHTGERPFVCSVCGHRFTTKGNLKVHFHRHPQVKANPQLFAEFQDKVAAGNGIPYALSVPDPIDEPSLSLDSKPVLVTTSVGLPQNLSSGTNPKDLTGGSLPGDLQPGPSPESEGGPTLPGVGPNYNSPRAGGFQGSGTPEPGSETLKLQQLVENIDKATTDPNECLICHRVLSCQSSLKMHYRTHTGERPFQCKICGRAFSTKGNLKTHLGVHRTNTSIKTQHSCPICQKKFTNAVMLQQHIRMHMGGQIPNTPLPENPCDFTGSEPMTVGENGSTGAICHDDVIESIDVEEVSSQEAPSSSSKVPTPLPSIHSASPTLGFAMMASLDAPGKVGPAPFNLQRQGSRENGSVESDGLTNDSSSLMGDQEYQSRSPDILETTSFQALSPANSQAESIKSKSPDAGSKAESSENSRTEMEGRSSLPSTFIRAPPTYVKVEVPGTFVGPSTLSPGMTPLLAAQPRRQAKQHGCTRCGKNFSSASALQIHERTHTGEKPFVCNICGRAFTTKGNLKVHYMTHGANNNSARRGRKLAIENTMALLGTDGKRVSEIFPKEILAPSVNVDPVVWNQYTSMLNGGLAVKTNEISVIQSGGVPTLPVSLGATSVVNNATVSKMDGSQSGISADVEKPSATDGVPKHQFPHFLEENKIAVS
Setting: 8-mer, flanks averaged, mean of replicates
| Sequence | E-score |
| --- | --- |
| CAGGTAGC | -0.292 |
| GGATCTCA | -0.0584 |
| CGGCACAC | -0.211 |
| GTTTAGAA | 0.207 |
| ACAATTCG | 0.0897 |
| ATCCTGGG | -0.229 |
| ACAGGCAG | -0.00532 |
| TTAAAGAA | 0.3 |
| AAGACTAA | 0.102 |
| AGATCGGG | -0.268 |
| ACAACTTG | 0.0347 |
| AAGGACCG | -0.178 |
| ACAGCTAT | 0.105 |
| AGTTACGG | 0.0314 |
| TAATTCAA | 0.325 |
| CGGCCGAC | -0.226 |
| AAAACGAG | 0.076 |
| GCTGTGCC | -0.229 |
| AACAGTCT | 0.0508 |
| AAAAAAAA | 0.37 |
| AACTCTTC | -0.101 |

Series 2 — technique: RNA Bind-n-Seq; molecule type: RNA; medium: in vitro; concentration: 1 µM; setting: whole 134-nt RNA, ends assumed; added: 150 mM KCl; relative to: input library; direction: higher = stronger binding
Target: Ras GTPase-activating protein-binding protein 1, C-terminal RGG region (G3BP1, Homo sapiens, UniProt Q13283)
Chain of UniProt Q13283 (whole entry, looked up): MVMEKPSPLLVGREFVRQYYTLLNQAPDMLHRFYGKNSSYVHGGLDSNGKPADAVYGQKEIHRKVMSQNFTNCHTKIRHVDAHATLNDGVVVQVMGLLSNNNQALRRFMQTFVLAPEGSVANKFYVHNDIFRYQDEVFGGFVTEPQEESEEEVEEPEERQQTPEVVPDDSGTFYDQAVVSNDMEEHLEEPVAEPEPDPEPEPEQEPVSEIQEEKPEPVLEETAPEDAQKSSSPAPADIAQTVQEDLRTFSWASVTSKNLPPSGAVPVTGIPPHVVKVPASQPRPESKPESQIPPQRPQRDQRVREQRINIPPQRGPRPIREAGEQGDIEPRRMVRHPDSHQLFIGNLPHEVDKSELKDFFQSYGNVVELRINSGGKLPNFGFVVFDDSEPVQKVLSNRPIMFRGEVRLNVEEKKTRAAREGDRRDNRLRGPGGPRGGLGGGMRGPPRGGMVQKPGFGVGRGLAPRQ
All sequences stand within: GGGAGUUCUACAGUCCGACGAUC … UGGAAUUCUCGGGUGUCAAGG
| Sequence | log2 enrichment |
| --- | --- |
| ACCAUGCAGGUGGGCAUCUUUGGGAAGUGGGGCAAGGGGGGGAUAGGGAGGGGAAAAACACUUUGGGAACAGGUGGUCCCAGGUCGUUUC | -1.17 |
| CAAGUCCUGUGCUACACAUCGUAUGUACCGAAUCGGGGUUUGGUUUGGGUUUGGGGAAAGUAUUAUGUUACGCCGUUCGGAUCUGCACUU | -0.826 |
| CACAGACAACACGCACCCACACAUACACAGAGGGAAGGGGUUGGGAUGGGGACAGGGUGCACAGCAGGGCGGGGUAGGACCCCAGCCCCU | -0.278 |
| AGUCCUGUGCUACACAUCGUAUGUACCGAAUCGGGAAAAAGGGAAAGGGAAAAAGGGAAAGUAUUAUGUUACGCCGUUCGGAUCUGCACU | 0.309 |
| CACAGACAACACGCACCCACACAGACACAGAGGGAAGGGGUUGGGAUGGGGAAAGGGUGCACAGCAGGGCGGGGUAGGACCCCAGCCCCU | -0.265 |
| GCAGGAAGUAAAAACAAAUGGAAAUGCUUCGGAUAGUGGCAGGGGUGGGGGUUGCUAAAAAAAGGGUGGGAUGGGAGUGGGUAAAGAGUU | 2.13 |
| UCAAGUCCUGUGCUACACAUCGUAUGUACCGAAUCGGUUUGGUUUGGUUUUUGGAAAGUAUUAUGUUACGCCGUUCGGAUCUGCACUUCC | -1.1 |
| UGUUGCCGUGUGUCUCACCCUACCAUUUCAGAAAAAUGUUCGUUGGUGGCCUGAGCUGGGAUACUAGCAAAAAAGAUUUAAAAGACUAUU | -2.27 |
| GUCCUGUGCUACACAUCGUAUGUACCGAAUCGGUUUUUUGGGUUUUUUGGUUUUUUGGAAAGUAUUAUGUUACGCCGUUCGGAUCUGCAC | -1.27 |

Series 3 — technique: RNA Bind-n-Seq; molecule type: RNA; medium: in vitro; concentration: not given; relative to: input RNA pool; direction: higher = stronger binding
Target: RING finger protein unkempt homolog, zinc fingers 1-6, GST-SBP tag (UNK, Homo sapiens, UniProt Q9C0B0, residues 30-357)
Chain of UniProt Q9C0B0 (30-357, looked up): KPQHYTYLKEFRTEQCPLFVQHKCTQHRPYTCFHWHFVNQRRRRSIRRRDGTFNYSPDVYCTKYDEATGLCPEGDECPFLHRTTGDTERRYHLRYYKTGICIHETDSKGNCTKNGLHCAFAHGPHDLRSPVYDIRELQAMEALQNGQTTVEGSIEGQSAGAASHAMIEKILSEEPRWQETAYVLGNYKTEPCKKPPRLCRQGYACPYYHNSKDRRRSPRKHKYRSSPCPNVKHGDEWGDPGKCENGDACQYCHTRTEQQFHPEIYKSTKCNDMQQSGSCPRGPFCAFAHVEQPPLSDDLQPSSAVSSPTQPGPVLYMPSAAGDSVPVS
Setting: RNA with constant flanks, human and mouse sites, ends assumed
All sequences stand within: GGGAGUUCUACAGUCCGACGAUC … CAACAGAGGAUUGAGCAUCA
| Sequence | bound/input enrichment |
| --- | --- |
| UAUUCUUCAGCUACCAGUGAAUGGAGGCUAAGCUAUGUCAAUAAGGAAUUUGCUGUCUGUCCCUCUUACCCACCAAUUGUCACAGUGCCCAAAUCCAUCGAUGAUGAAGCUCUUCGGAAG | 0.146 ratio |
| ACGCCAAAGCCACUUCGAAGUAGUGCUGACCCUGCACUCAAUCAAGAAGUUGCAUUAAAAUUAGAACCAAAUCCAGAGUCACUGGAACUUUCUUUUACCAUGCCCCAGAUUCAGGAUCAG | 0.456 ratio |
| AUCUUUAUCUCACAAGAUGAAAUACAGUCAUUUAUGGCUAAUAACCAGUCUUUCUACAGCAAUAGAGAACAAUACCGACAGCAUCUGAAGGAGAAAUUUAAUAAAUACUGCCGCUUAAAU | 0.372 ratio |
| UAGCAUUUCAUGAGUUAGAAACAGGAAGAACAUUAUAAUUAAUAUUACCUAAGUCUAAAGUACCCAUAUAUUCAAAUUGGAUAUACUAUUUUUUCCUCUUGUGUUUAGAGAUUACCUAGG | 2.07 ratio |
| GAGAAUUUAAAUUGAUUCUCAGUUCUGUCAUCAUUAGUUUCUUUUACAUUAAUAUGUCCAUAGUUUGCAUGUUCCCUGGACAGCUUUGUCUUAAUUUCCAUGAGUAGAACUGUGACUUCU | 49.8 ratio |
| GACCUUGCAAAAGUGCUAUUGAAAAGAACAGUCCAGACUAUUGAGGCAUGCAUUGCUAAUUUUUUCAAUCAAGUCCUGGUGCUGGGAAGAUCAUCAGUAAGUGAUUUGUCAGAACAUGUA | 0.212 ratio |
| AGUGGCCUGGACUCACACUACCAAACAGAGCCGCACGUUCUGGCUGGCACCGCUAAUCCGACGGUUGCCAAAAGAAACAUGACUUUGCCUGGCGAGAACGGUCAAAACUUGGUGGAAUGG | 0.102 ratio |
| UAAAUACAUAUAUAUUUGCUUGACGAAUCACCAAGCACAUUGGUGAGAGGGUCUUUUCCUAUAGAAUUCACUCAUCCGUUUUGUUGUGUUGUCCUGAGCUUCCCAAUGUUGAGGUCUCUA | 0.42 ratio |

Series 4 — technique: protein binding microarray; molecule type: double-stranded DNA, one strand shown; medium: in vitro; concentration: not given; relative to: not given; direction: higher = stronger binding
Target: Histone acetyltransferase KAT6A, winged helix 1, GST fusion (KAT6A, Homo sapiens, UniProt Q92794, residues 1-85)
Setting: 8-mer, flanks averaged, mean of 2 arrays, mostly near background
Residues (chain): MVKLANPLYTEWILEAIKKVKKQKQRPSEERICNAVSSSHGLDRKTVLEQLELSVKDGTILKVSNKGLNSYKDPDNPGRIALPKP
| Sequence | E-score |
| --- | --- |
| AAGTAGGA | -0.197 |
| ATATAGAT | -0.153 |
| ATACTCCG | 0.108 |
| ACCCGGGG | 0.279 |
| ATTACATC | 0.109 |
| CCCCTTAA | -0.239 |
| CTCGTTTA | -0.101 |
| AGTATCGG | 0.144 |
| CATCATGC | 0.0877 |
| GAACACTC | 0.0209 |
| ATGAGGAG | -0.135 |
| TCGCAACA | -0.00407 |
| GCATACCC | 0.0135 |
| AAACAATG | -0.12 |
| ATAGCCTG | -0.268 |
| AGATTTGC | -0.0473 |
| ATGACCGG | 0.0674 |
| ATCTACCC | -0.0487 |

Excerpt of the above (series 3):
| Sequence | bound/input enrichment |
| --- | --- |
| ACGCCAAAGCCACUUCGAAGUAGUGCUGACCCUGCACUCAAUCAAGAAGUUGCAUUAAAAUUAGAACCAAAUCCAGAGUCACUGGAACUUUCUUUUACCAUGCCCCAGAUUCAGGAUCAG | 0.456 ratio |
| AUCUUUAUCUCACAAGAUGAAAUACAGUCAUUUAUGGCUAAUAACCAGUCUUUCUACAGCAAUAGAGAACAAUACCGACAGCAUCUGAAGGAGAAAUUUAAUAAAUACUGCCGCUUAAAU | 0.372 ratio |
| UAGCAUUUCAUGAGUUAGAAACAGGAAGAACAUUAUAAUUAAUAUUACCUAAGUCUAAAGUACCCAUAUAUUCAAAUUGGAUAUACUAUUUUUUCCUCUUGUGUUUAGAGAUUACCUAGG | 2.07 ratio |
